Assay results gathered from unrelated publications.
Numbers after ± are the reported error.
Sequence of UniProt O43684 (whole entry, looked up): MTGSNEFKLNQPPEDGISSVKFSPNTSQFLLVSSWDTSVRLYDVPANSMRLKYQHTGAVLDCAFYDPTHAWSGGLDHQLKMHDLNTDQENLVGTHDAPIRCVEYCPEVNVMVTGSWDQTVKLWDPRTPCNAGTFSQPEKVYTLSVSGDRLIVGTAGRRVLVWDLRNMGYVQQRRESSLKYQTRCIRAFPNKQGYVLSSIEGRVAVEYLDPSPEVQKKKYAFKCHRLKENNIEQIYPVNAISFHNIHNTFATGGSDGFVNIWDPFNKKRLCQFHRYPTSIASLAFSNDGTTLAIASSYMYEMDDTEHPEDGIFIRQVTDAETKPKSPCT

SMILES = C[C@]1(CO)Cc2ncn(-c3ccc(C#N)c(Cl)c3)c2C(=O)O1; system = human, Chinese, plasma; conditions = 60 mg single dose, geometric mean; measurement = Cmax; value = 3.56 µM
SMILES = O=[N+]([O-])c1ccc(N2CCN(CCC(O)c3ccc(F)cc3)CC2)c(C(F)(F)F)c1 (stereo not drawn); tested on = Salmonella typhimurium; assay = genotoxicity, SOS/umu test; system = TA1535/pSK1002; conditions = 0.004 mg/mL, 4 h, without S9, lower range; measurement = induction factor; value = 0.7
SMILES = COCCN(CCOC)N=O; tested on = Salmonella typhimurium; assay = mutagenicity, Ames plate incorporation; system = TA1535; conditions = 500 µg/plate, 3 d, without S9, methanol; measurement = revertant colonies per plate; value = 16 ± 6
SMILES = CC(=O)N1CCC(C(=O)N2CCN3C(=O)c4cc(-c5ccccc5)ccc4NC(=O)C3C2)CC1 (stereo not drawn); tested on = Escherichia coli; system = WP2 uvrA; conditions = 500 µg/plate, without S9; measurement = revertants per plate; value = 20.5
SMILES = [Cl-].[Cl-].[Pt+2].[Ru+2].c1ccc(-c2nccnc2-c2ccccn2)nc1.c1cnc2c(c1)ccc1cccnc12.c1cnc2c(c1)ccc1cccnc12; tested on = Danio rerio; system = embryos; conditions = 60 µM, 0 h; measurement = survival rate; value = 100%
SMILES = C[C@H]1CN(c2n[nH]c3nc(N[C@H]4CC[C@H](NS(=O)(=O)CCC(F)(F)F)CC4)ncc23)CCO1; tested on = Mitotic checkpoint protein BUB3 (Homo sapiens, UniProt O43684); assay = Kinobeads competition, refers to: BUB3; conditions = 0.16 µM, unit not given; how to read = baseline: vehicle; measurement = remaining binding; value = 1.04
SMILES = [Cl-].[Cl-].[Pt+2].[Ru+2].c1ccc(-c2nc3cc4ccccc4cc3nc2-c2ccccn2)nc1.c1cnc2c(c1)ccc1cccnc12.c1cnc2c(c1)ccc1cccnc12; tested on = Danio rerio; system = embryos; conditions = 60 µM, 0 h; measurement = survival rate; value = 100%
SMILES = COc1cccc(-c2n[nH]c(SCc3ccccn3)n2)c1OC; tested on = Salmonella typhimurium; assay = Ames test, preincubation; system = TA1537; conditions = 1.0 mg/plate, without S9; measurement = revertant colonies per plate; value = 6
SMILES = CO[C@H]1C[C@@H]2CC[C@@H](C)[C@@](O)(O2)C(=O)C(=O)N2CCCC[C@H]2C(=O)O[C@H]([C@H](C)C[C@@H]2CC[C@@H](OC(=O)NCCOCCOCCOCCOCCOCCOCCOCCOCCC(=O)N3CCc4cc(Cn5nc(-c6ccc7oc(N)nc7c6)c6c(N)ncnc65)ccc4C3)[C@H](OC)C2)C[C@@H](O)[C@H](C)/C=C(\C)[C@@H](O)[C@@H](OC)C(=O)[C@H](C)C[C@H](C)/C=C/C=C/C=C/1C; assay = phase 1 dose escalation, refers to: fatigue; system = advanced solid tumour patients; conditions = intravenous, 16 mg weekly, any grade; measurement = TRAE incidence; value = 50%
SMILES = OC(CCN1CC=C(c2ccc(F)cc2)CC1)c1ccc(F)c2ccccc12 (stereo not drawn); tested on = Salmonella typhimurium; assay = SOS response, SOS/umu test; system = TA1535/pSK1002, TGA medium; conditions = 0.000488 mg/mL, 4 h, added: 10% rat liver S9; how to read = baseline: untreated; measurement = induction factor; value = 0.7
SMILES = Cc1cc(C(=O)NC(C)(C)COc2cccc3c2C(N)=NS(=O)(=O)N3)cc(C)n1; tested on = Salmonella typhimurium; assay = Ames test, initial; system = TA1535; conditions = 150 µg/plate; how to read = baseline: solvent control; measurement = revertant ratio; value = 1.1
SMILES = COc1cc2c(Oc3ccc4[nH]c(C)cc4c3F)ccnc2cc1OCC1(N)CC1; system = paediatric recurrent refractory sarcoma; conditions = 8 mg; measurement = bone pain incidence; value = 25%

A few entries again:
SMILES = CC(=O)N1CCC(C(=O)N2CCN3C(=O)c4cc(-c5ccccc5)ccc4NC(=O)C3C2)CC1 (stereo not drawn); tested on = Escherichia coli; system = WP2 uvrA; conditions = 500 µg/plate, without S9; measurement = revertants per plate; value = 20.5
